Results gathered from unrelated publications.
Every numbered part comes from another study and shows a few of its results, in no order. Values joined by “and” are separate records of one study, mostly repeats; a detail may differ.

Study 1 — effect on: enzyme activity; action: inhibitor; concentration: 0.5 µM; baseline: control
Target: Serine/threonine-protein kinase PAK 5 (PAK5, Homo sapiens, UniProt Q9P286)
UniProt Q9P286, sequence (whole entry, looked up): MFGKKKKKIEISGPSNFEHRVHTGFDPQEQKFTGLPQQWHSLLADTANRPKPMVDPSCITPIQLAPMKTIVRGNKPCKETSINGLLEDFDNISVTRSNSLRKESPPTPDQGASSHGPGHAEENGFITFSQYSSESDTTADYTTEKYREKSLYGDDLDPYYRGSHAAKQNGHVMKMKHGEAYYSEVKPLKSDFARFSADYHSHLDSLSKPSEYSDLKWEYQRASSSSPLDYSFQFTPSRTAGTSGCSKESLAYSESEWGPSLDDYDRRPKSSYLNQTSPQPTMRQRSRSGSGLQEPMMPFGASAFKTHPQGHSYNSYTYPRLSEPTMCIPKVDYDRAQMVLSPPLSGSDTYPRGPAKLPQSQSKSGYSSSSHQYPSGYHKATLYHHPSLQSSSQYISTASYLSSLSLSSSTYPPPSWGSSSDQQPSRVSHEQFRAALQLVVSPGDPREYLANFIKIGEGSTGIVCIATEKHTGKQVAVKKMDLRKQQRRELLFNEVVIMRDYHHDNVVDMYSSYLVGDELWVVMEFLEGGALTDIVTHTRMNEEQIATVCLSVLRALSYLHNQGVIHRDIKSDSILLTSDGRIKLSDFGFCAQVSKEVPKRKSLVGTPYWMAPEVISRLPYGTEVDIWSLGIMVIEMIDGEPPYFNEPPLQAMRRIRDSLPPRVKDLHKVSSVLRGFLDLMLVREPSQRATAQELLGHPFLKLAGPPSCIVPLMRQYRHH
| SMILES | remaining activity |
| --- | --- |
| c1ccc(-c2n[nH]c3c2oc2ccccc23)cc1 | 70.9% |
| N#Cc1cnc2cnc(NCc3cccnc3)cc2c1Nc1ccc(F)c(Cl)c1 | 98.3% |
| Oc1cccc(-c2nc(N3CCOCC3)c3oc4ncccc4c3n2)c1 | 92.8% |
| Cc1cc(Nc2cc(N3CCN(C)CC3)nc(Sc3ccc(NC(=O)C4CC4)cc3)n2)[nH]n1 | 91.7% |
| CCCCc1c(-c2ccc(OC)cc2)[nH]c2nccnc12 | 88.1% |
| O=C1NC(=O)c2c1c1c3ccccc3[nH]c1n1cncc21 | 80% |
| O=C1Nc2ccc(Br)cc2/C1=C/c1cc2c([nH]1)CCCC2 | 85.4% |
| CCCNC(=O)Nc1ccc(Oc2ncnc3cc(OC)c(OC)cc23)cc1Cl | 84.5% |

Study 2 — method: exponential regression of PRP log k'; medium: 1,9-decadiene/PBS; pH: 7.4
| Structure (SMILES) | logD (1,9-decadiene/water) |
| --- | --- |
| CCCCOc1ccc(-c2ccc(C(=O)NCCCCCC(=O)N[C@H](C(=O)N3C[C@H](O)C[C@H]3C(=O)NCc3ccc(-c4scnc4C)cc3)C(C)(C)C)cc2)cc1 | 1.54 |
| Cc1ncsc1-c1ccc(CNC(=O)[C@@H]2C[C@@H](O)CN2C(=O)[C@@H](NC(=O)CCCCCNC(=O)CC23C[C@H]4C[C@@H](C2)C[C@@H](C3)C4)C(C)(C)C)cc1 | -0.339 |
| Cc1ncsc1-c1ccc(CNC(=O)[C@@H]2C[C@@H](O)CN2C(=O)[C@@H](NC(=O)CCCCCOC(=O)CC(c2ccccc2)c2ccccc2)C(C)(C)C)cc1 | 1.32 |
| Cc1ncsc1-c1ccc(CNC(=O)[C@@H]2C[C@@H](O)CN2C(=O)[C@@H](NC(=O)CCCCCOC(=O)CC23C[C@H]4C[C@@H](C2)C[C@@H](C3)C4)C(C)(C)C)cc1 | 1.97 |

Study 3 — effect on: enzyme activity; action: inhibitor; concentration: 10 µM
Target: Calcium/calmodulin-dependent protein kinase type II subunit alpha (CAMK2A, Homo sapiens, UniProt Q9UQM7)
UniProt Q9UQM7, sequence (whole entry, looked up): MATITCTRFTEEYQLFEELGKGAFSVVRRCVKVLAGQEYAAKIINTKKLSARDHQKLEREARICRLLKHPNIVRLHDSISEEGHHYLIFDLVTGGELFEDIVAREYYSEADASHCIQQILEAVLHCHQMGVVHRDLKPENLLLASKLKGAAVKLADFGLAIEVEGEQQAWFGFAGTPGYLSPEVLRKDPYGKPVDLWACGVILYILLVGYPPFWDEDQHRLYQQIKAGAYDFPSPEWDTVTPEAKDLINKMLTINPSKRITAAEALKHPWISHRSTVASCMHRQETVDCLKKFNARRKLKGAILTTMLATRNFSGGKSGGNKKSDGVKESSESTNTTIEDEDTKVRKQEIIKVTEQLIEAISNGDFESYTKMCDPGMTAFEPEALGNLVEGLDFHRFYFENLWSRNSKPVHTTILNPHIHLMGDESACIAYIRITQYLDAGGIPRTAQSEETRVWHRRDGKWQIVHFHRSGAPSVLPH
| Compound | inhibition |
| --- | --- |
| C=C(C)[C@@H]1CC[C@]2(C(=O)O)CC[C@]3(C)[C@H](CC[C@@H]4[C@@]5(C)CC[C@H](O)C(C)(C)[C@@H]5CC[C@]43C)[C@@H]12 | -84% |
| CC(C)(CO)c1cc2cc(NC(=O)C3(c4ccc5c(c4)OC(F)(F)O5)CC3)c(F)cc2n1C[C@@H](O)CO | 6% |
| C[N+](C)(C)C[C@H](O)CC(=O)[O-] | -10% |
| CCCCCCCCCCCC(=O)OC | -10% |
| O=C(/C=C/c1ccc(O)cc1)OC[C@H]1O[C@@H](Oc2c(-c3ccc(O)cc3)oc3cc(O)cc(O)c3c2=O)[C@H](O)[C@@H](O)[C@@H]1O | -0.2% and -0.74% |
| O=C1CCCCCCCCCCCCCCO1 | -15% |
| S=c1nc[nH]c2nc[nH]c12 | -0.07% and 0.06% |

Study 4 — effect on: ligand displacement; concentration: 10 µM
Target: Muscarinic acetylcholine receptor M5 (CHRM5, Homo sapiens, UniProt P08912)
UniProt P08912, sequence (whole entry, looked up): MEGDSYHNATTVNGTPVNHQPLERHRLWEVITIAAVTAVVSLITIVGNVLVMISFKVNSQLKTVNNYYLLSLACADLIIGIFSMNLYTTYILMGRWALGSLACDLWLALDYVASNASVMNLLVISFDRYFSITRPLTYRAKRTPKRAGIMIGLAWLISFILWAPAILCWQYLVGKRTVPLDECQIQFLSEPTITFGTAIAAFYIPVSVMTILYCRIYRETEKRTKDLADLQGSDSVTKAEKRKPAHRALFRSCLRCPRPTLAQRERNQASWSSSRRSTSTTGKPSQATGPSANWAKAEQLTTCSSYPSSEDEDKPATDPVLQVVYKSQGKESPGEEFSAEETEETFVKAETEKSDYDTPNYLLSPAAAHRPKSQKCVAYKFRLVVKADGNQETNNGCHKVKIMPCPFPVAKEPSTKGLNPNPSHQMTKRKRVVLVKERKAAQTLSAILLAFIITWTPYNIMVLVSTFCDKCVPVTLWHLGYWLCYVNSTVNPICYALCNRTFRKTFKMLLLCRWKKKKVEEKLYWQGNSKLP
| SMILES | inhibition [%] |
| --- | --- |
| CN(C)CC#Cc1ccc(OCCCc2sc(N3CCc4cccc(C(=O)Nc5nc6ccccc6s5)c4C3)nc2C(=O)O)c(F)c1 | 12.6 |
| O=C(N[C@H]1CCCCC/C=C\C2C[C@@]2(C(=O)O)NC(=O)[C@@H]2C[C@@H](Oc3ccncc3)CN2C1=O)OC1CCCC1 (some centres unmarked) | -11.5 |
| CCC(=NO)C(C)=Cc1ccc(F)c(C)c1 | 2.77 |
| O=C1NC(c2ccccn2)Sc2ccccc21 (centres unmarked) | 0.557 |
| CCOc1ccc(S(=O)(=O)Nc2ccc(Cl)cc2C#Cc2cnc(C(=O)O)cc2OC)c2ncccc12 | -6.26 |
| N#CC1(c2ccccn2)CCN(Cc2cc(C(=O)N3CCCC3)c(=O)n3ccccc23)CC1 | 0.56 |
| CC[C@H](CC(=O)O)n1c(=O)c2ncccc2n(Cc2cn(C)c3cc(C)cc(C)c23)c1=O | 8.73 |
| Cc1noc([C@H]2C[C@@H](c3ccc(C(F)(F)F)cc3)CN(C(=O)N3CCS(=O)(=O)C3)C2)n1 | -1.71 |
| C[C@@H](c1cccc(C#N)c1)n1cc(Cl)cc(C(N)=O)c1=N | -1.05 |
| O=C(NS(=O)(=O)c1ccc(NCC2CCOCC2)c([N+](=O)[O-])c1)c1ccc(N2CCN(Cc3ccc(C(F)(F)F)cc3-c3ccc(Cl)cc3)CC2)cc1Oc1cnc2[nH]ccc2c1 | 10 |
| c1ccc(C2CCN(c3cnc4c(N5CCOCC5)nccn34)CC2)cc1 | -14.5 |
| CC1=C(C#N)C(c2ccc3[nH]nc(C)c3c2)C(C#N)=C(C)N1 | 5.48 |
| Cc1ncc(-c2cc(Cl)ccc2F)cc1-n1c(=O)n(CC(N)=O)c2ccccc21 | 1.56 |
| O=c1nc(-c2ccccn2)sc2ccccc12 | -7.5 |
| NS(=O)(=O)c1cc(NC(=O)Cc2ccccc2)ccc1Oc1cccc(Cl)c1 | 16.7 |
| COc1cc(-c2cn(C3CCc4c(F)cccc4N(CC(F)(F)F)C3=O)nn2)ccc1-n1cnc(C)c1 (centres unmarked) | 26.1 |

For quick reference, copied from above (study 3):
| Compound | inhibition |
| --- | --- |
| CC(C)(CO)c1cc2cc(NC(=O)C3(c4ccc5c(c4)OC(F)(F)O5)CC3)c(F)cc2n1C[C@@H](O)CO | 6% |
| C[N+](C)(C)C[C@H](O)CC(=O)[O-] | -10% |
| CCCCCCCCCCCC(=O)OC | -10% |
| O=C(/C=C/c1ccc(O)cc1)OC[C@H]1O[C@@H](Oc2c(-c3ccc(O)cc3)oc3cc(O)cc(O)c3c2=O)[C@H](O)[C@@H](O)[C@@H]1O | -0.2% and -0.74% |
